Measured values from different studies.
A part holds a random share of what one study measured. “And” joins repeats or separate records; there may be more than shown. Changes are numbered by the printed parent chain.

Block 1
Target: RING finger protein unkempt homolog, zinc fingers 1-6, GST-SBP tag (UNK, Homo sapiens, UniProt Q9C0B0, residues 30-357)
Technique: RNA Bind-n-Seq
Molecule type: RNA
Matrix: in vitro
Tested at: not given
Notes: RNA with constant flanks, human and mouse sites, ends assumed
Relative to: input RNA pool
Direction: higher = stronger binding
Target sequence (chain): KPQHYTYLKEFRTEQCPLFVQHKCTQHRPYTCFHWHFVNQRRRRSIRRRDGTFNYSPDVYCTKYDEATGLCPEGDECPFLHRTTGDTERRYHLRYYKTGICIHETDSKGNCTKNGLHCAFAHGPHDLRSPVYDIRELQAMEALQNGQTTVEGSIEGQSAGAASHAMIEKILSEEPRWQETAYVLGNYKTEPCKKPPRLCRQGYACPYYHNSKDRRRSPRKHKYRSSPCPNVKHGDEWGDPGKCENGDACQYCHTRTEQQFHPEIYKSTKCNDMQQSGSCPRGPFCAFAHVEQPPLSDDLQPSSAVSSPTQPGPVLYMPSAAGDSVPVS
Oligonucleotide	bound/input enrichment [ratio]
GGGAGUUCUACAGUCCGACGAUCGGUCCUAAAGACAAGAUUCUUGAUGGGACUGAUACCGACAGCAAUAGGAUCUUUUGAGUAUUCAACUCGGAGUAACAGAAUUUGUCAUCAACGGCAUGAAUGGCUCAGCCGAGGAAAUAGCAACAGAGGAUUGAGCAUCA	0.281
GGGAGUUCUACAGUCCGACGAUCCUUACAGUUGGUGGUAAGGCCUUUGGAAUGUUUGAAGGAACAGCAUAUGCCAUAUAUGAGCUGGCUGUGGCUUCAUUUCCCAAGAAGCAGGAGUGACUUCAGUCAUCCCAGCAAUCGCUUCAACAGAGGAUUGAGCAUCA	0.0595
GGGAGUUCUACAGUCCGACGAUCACAUCUGCAGAUAAAGUGGAGAGUCUGGAUGUGGAUAGUGAAGCUAAGAAACUAUUGGGUUUAGGACAGAAACAUCUGGUGAUGGGGGAUAUUCCAGCAGCUGUCAAUGCAUUCCAGGAACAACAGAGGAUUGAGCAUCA	0.524
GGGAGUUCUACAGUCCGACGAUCGGAUUCAGGAACAUCAUCGCAGAUCCUGUCACCUUCAAGACCAAAUCGAGCUAUGUUGCCUUAGCUACAUUGCAAGCCUACACCUCUAUGCAUCUAUUUUUCCAAUUCAAGACAACAUCUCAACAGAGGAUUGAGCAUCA	0.602
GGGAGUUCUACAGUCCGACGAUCUCAUAUGUUCAAGACAGAGUUCCUUCAUAUUCACAAGGAGCAAGACCAAAAGAAAACUCAAUGAGCACUUUACAGUUGAAUACAUCAUCCACAAACCACCAAUUGCCUUCUGAACAUCAGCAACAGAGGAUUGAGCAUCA	0.228
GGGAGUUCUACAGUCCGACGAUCGCUGUAUUUUUAUCUUUUCCCUGUUAUGUUGAAUUCUAUACUUUAAUUUAUAAAUUUCAAAUUCUAUAAACCUACAUGACUGUUAUAAUCCUGGAAAAUGUUGGUGUCAGAAAAUGAAUGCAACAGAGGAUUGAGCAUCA	3.72
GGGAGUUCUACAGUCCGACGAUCACACCUAGUGACCGUUCCAGAUACAGGUUAGAUUUGGAAGGAAAUGAGUAUCCUGUUCAUAGCACUCCAAAUUGUCACGAUCAUGAACGUAACCAUAAAGUGCCUCCACCUAUUAAACCUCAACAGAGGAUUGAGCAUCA	0.247
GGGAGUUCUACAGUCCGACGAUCAUGUCAUUAAGCUCUGAUGGUUGUAUAUAUGAAACCUUGAUACCAAUACGUCCAGCUGACCCAGAAAAAAAUCAGAGCUUAGUUAAAUCACUGCUGCUCAAGGCUGUUGUAUCUGGUAACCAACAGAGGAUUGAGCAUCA	0.66

Block 2
Target: Histone acetyltransferase KAT6A, winged helix 2, GST fusion (KAT6A, Homo sapiens, UniProt Q92794, residues 85-181)
Technique: protein binding microarray
Molecule type: double-stranded DNA, one strand shown
Matrix: in vitro
Tested at: not given
Notes: 8-mer, flanks averaged, mean of 2 arrays, mostly near background
Relative to: not given
Direction: higher = stronger binding
Residues (chain): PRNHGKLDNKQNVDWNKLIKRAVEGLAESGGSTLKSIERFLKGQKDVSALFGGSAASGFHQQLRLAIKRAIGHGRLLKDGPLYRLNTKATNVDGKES
Oligonucleotide	E-score
GAGTCACC	-0.0962
GGCGATCA	0.0422
AGAACTAT	0.0104
ATAAGTGG	-0.106
AATATCAA	0.0441

Block 3
Target: CCNB1, cyclin fold, Cln2 fusion (human)
Technique: yeast growth competition, sequencing
Matrix: yeast
Notes: weak parent motif
Relative to: not given
Direction: higher = stronger binding
Starting sequence: CDKN1B docking peptide (human); PSACRNLFGPVDH
Change	normalised enrichment score
PSATRNLFGPVDH [C4T]	0.0457
PSACRNLFGPRDH [V11R]	0.136
PSACRNLFGPVFH [D12F]	0.298
PSACCNLFGPVDH [R5C]	-0.149
PSACRNYFGPVDH [L7Y]	0.263
PSACRNLFGPVDM [H13M]	-0.023
PQACRNLFGPVDH [S2Q]	0.0153
PSACRALFGPVDH [N6A]	0.82

Other studies, line by line
Substance	target	assay	system	setting	scale	quantity	result
PhoQ, residues 284 288 289 292 302 303 SSYNSA	PhoP, residues 12 14 15 18 19 LWHCS (Escherichia coli, UniProt P23836)	Sort-seq, item: YFP reporter	E. coli	PhoQ-PhoP variant library, together with: 10 µM Mg2+	relative to: high Mg2+ state, higher = stronger signaling	fold induction	17.3 and 13.4
